{"data": "Measured values gathered from unrelated publications", "note": "Compare with care: the assays were run in different laboratories. “And” joins repeats or separate records; there may be more than shown."}
{"Molecule": "HA soluble ectodomain, foldon (influenza B virus)", "tested on": "itself", "test": "SEC", "endpoint": "subunits per oligomer", "result": 3}
{"Molecule": "RSV F/foldon soluble ectodomain F488W (respiratory syncytial virus)", "tested on": "itself", "test": "SEC", "endpoint": "subunits per oligomer", "result": 3}
{"Molecule": "HA/fibritin foldon extracellular domain, trimeric (Influenza A virus)", "tested on": "itself", "test": "SEC", "endpoint": "subunits per oligomer", "result": 3}
{"Molecule": "NA head domain (Influenza A virus H1N1)", "tested on": "itself", "test": "cryo-EM", "endpoint": "subunits per oligomer", "result": 4}
{"Molecule": "integrase mature (HIV-1)", "tested on": "itself", "test": "negative stain electron microscopy", "endpoint": "subunits per oligomer", "result": 8}
{"Molecule": "HA trimeric ectodomain (H7N1 influenza A virus)", "tested on": "itself", "test": "cryo-EM", "endpoint": "subunits per oligomer", "result": 3}
{"Molecule": "comFB (Vibrio cholerae)", "tested on": "itself", "test": "mass photometry", "conditions": "with: c-di-GMP 0.5 mM", "endpoint": "subunits per oligomer", "result": 2}
{"Molecule": "PR2 mature protease D25N (HIV-2)", "tested on": "itself", "test": "SEC-MALS", "endpoint": "subunits per oligomer", "result": 2}
{"Molecule": "PDCoV spike ectodomain trimer ectodomain (porcine deltacoronavirus)", "tested on": "itself", "test": "cryo-EM", "endpoint": "subunits per oligomer", "result": 3}
{"Molecule": "S ectodomain, GCN4 trimerization motif R717S (Murine hepatitis virus)", "tested on": "itself", "test": "SEC-MALS", "endpoint": "subunits per oligomer", "result": 3}
{"Molecule": "Spike receptor binding domain (SARS-CoV-2)", "tested on": "itself", "test": "SEC-MALS", "endpoint": "subunits per oligomer", "result": "550 monomers per nanoparticle"}
{"Molecule": "INITRFQTL", "test": "AIM", "system": "peptide, CD8+ T cells from PBMC, human donors", "conditions": "HLA-B*08:01 restricted, unit not given", "how to read": "relative to: positive over tested donors", "endpoint": "frequency of responding donors", "result": 20}
{"Molecule": "F ectodomain (Hendra virus)", "tested on": "itself", "test": "cryo-EM", "endpoint": "subunits per oligomer", "result": 6}
{"Molecule": "US6/Ighm gD (Herpes simplex virus-2/Mus musculus)", "tested on": "itself", "test": "SEC", "endpoint": "subunits per oligomer", "result": 15.2}
{"Molecule": "HA ectodomain (influenza A H1N1 A/Michigan/45/2015)", "tested on": "itself", "test": "cryo-EM", "endpoint": "subunits per oligomer", "result": 3}
{"Molecule": "LLLDRLNQL", "test": "AIM", "system": "peptide, CD8+ T cells from PBMC, human donors", "conditions": "HLA-A*02:01 restricted, unit not given", "how to read": "relative to: positive over tested donors", "endpoint": "frequency of responding donors", "result": 20}
{"Molecule": "gp41 with full IL linker (HIV-1)", "tested on": "itself", "test": "AUC", "conditions": "pH 4.0", "endpoint": "subunits per oligomer", "result": 3}
{"Molecule": "rubrerythrin (Burkholderia pseudomallei, UniProt Q3JK21)", "tested on": "itself", "test": "SEC", "endpoint": "subunits per oligomer", "result": 2}
{"Molecule": "NP (UniProt P03466)", "tested on": "itself", "test": "negative-stain electron microscopy", "endpoint": "subunits per oligomer", "result": "6 protomers per ring and 4 protomers per ring and 7 protomers per ring"}
{"Molecule": "integrase catalytic core domain F185H (HIV-1)", "tested on": "itself", "test": "native MS", "endpoint": "subunits per oligomer", "result": 2}
{"Molecule": "HA soluble ectodomain, foldon (influenza A virus H3N2)", "tested on": "itself", "test": "SEC", "endpoint": "subunits per oligomer", "result": 3}
{"Molecule": "MPER/Fluc-Ec2 (HIV-1/Escherichia coli)", "tested on": "itself", "test": "crystal structure", "endpoint": "subunits per oligomer", "result": 2}
{"Molecule": "env gp41 postfusion six-helix bundle (HIV-1)", "tested on": "itself", "test": "crystal structure", "endpoint": "subunits per oligomer", "result": 3}
{"Molecule": "NP (influenza A virus)", "tested on": "itself", "test": "SEC", "endpoint": "subunits per oligomer", "result": 4}
